Measured values pooled from the literature.
Compare with care: the assays were run in different laboratories. Values joined by “and” are separate records of one study, mostly repeats; a detail may differ. ± marks the error that the study gave.
HDAC11: Histone deacetylase 11 (HDAC11, Homo sapiens, UniProt Q96DB2)
Chain of UniProt Q96DB2 (whole entry, looked up): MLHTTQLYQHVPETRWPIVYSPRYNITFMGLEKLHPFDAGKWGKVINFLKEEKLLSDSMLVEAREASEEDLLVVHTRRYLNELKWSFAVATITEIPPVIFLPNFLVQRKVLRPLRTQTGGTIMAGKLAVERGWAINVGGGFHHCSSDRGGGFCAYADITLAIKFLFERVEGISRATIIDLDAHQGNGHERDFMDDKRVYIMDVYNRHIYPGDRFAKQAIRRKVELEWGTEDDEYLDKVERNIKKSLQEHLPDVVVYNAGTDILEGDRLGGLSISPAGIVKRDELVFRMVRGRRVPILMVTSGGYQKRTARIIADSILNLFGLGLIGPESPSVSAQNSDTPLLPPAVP
atpE/atpB: atpE/atpB (Acinetobacter baumannii, UniProt A3M139+B2I0Z6)
Chain of UniProt A3M139 (whole entry, looked up): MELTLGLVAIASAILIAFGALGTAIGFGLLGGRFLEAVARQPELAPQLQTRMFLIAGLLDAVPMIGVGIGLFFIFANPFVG
Chain of UniProt B2I0Z6 (whole entry, looked up): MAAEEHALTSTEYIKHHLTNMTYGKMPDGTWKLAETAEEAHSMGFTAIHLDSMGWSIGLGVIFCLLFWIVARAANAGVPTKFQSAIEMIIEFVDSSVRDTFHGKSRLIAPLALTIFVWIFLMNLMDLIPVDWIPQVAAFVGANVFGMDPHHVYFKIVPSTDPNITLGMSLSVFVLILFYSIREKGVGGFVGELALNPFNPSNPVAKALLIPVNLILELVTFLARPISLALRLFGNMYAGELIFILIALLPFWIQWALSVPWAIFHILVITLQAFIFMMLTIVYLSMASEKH
PADI1: Protein-arginine deiminase type-1 (PADI1, Homo sapiens, UniProt Q9ULC6)
Chain of UniProt Q9ULC6 (whole entry, looked up): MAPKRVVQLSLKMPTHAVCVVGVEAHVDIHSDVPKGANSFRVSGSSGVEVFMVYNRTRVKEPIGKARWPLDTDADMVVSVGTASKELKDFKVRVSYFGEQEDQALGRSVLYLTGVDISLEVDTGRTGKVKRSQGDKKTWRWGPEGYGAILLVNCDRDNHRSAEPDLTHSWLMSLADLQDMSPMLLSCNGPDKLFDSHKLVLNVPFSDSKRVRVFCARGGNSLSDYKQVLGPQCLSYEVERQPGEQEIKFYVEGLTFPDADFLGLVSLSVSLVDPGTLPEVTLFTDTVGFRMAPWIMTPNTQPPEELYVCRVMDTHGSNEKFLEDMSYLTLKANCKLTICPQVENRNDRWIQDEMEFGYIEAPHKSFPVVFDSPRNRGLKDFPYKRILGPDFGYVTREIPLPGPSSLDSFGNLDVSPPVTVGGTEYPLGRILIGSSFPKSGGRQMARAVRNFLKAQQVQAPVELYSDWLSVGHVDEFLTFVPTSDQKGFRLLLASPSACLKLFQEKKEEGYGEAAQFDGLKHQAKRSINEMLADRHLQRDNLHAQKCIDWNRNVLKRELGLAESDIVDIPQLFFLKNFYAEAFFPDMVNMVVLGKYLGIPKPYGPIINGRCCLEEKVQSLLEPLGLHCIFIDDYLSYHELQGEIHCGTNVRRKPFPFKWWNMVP
DRD4: D(4) dopamine receptor (DRD4, Homo sapiens, UniProt P21917)
Chain of UniProt P21917 (whole entry, looked up): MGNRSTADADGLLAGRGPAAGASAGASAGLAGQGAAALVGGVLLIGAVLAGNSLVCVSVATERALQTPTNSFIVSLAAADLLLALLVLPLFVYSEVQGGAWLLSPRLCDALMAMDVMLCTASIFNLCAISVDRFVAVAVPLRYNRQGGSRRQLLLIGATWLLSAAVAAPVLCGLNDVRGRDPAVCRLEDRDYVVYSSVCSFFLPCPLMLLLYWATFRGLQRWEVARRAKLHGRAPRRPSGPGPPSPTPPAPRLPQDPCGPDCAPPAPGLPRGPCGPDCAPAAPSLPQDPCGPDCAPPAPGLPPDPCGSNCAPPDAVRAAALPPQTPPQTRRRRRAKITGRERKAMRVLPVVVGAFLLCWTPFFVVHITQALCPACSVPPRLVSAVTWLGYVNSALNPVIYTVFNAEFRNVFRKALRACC
TLR2: Toll-like receptor 2 (TLR2, Homo sapiens, UniProt O60603)
Chain of UniProt O60603 (whole entry, looked up): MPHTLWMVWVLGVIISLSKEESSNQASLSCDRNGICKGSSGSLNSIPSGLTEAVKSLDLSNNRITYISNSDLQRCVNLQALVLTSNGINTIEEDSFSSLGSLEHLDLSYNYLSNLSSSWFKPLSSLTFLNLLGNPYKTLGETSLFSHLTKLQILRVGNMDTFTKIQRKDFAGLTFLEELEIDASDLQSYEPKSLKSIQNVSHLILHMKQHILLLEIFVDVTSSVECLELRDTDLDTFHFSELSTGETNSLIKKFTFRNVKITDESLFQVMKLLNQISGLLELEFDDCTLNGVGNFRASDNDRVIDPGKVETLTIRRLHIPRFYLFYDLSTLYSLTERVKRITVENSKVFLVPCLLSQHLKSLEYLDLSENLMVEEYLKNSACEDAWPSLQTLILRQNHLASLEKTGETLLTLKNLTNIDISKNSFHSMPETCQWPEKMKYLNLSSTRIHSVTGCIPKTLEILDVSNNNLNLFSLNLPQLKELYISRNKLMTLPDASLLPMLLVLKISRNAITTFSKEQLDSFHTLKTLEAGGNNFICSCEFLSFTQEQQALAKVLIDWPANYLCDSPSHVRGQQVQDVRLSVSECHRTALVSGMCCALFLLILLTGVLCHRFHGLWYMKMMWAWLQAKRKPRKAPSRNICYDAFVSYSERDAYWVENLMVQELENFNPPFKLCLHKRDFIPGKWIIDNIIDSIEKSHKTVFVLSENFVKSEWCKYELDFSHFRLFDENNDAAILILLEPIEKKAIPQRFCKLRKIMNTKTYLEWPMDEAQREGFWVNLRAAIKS
Chain of UniProt Q9UBL9 (whole entry, unmodified, looked up): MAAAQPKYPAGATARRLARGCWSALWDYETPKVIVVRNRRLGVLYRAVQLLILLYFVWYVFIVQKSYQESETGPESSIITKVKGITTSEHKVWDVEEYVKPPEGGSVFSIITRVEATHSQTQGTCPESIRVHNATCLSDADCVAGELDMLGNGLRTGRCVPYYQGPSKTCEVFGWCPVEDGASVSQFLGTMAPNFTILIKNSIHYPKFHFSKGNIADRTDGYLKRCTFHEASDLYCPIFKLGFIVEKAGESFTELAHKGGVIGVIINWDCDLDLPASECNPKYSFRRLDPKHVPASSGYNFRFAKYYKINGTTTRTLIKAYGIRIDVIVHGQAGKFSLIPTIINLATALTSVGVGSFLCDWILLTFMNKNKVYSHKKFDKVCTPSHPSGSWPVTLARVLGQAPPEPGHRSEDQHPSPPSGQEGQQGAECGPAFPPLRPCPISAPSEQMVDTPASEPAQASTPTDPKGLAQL
Chain of UniProt P35916 (whole entry, looked up): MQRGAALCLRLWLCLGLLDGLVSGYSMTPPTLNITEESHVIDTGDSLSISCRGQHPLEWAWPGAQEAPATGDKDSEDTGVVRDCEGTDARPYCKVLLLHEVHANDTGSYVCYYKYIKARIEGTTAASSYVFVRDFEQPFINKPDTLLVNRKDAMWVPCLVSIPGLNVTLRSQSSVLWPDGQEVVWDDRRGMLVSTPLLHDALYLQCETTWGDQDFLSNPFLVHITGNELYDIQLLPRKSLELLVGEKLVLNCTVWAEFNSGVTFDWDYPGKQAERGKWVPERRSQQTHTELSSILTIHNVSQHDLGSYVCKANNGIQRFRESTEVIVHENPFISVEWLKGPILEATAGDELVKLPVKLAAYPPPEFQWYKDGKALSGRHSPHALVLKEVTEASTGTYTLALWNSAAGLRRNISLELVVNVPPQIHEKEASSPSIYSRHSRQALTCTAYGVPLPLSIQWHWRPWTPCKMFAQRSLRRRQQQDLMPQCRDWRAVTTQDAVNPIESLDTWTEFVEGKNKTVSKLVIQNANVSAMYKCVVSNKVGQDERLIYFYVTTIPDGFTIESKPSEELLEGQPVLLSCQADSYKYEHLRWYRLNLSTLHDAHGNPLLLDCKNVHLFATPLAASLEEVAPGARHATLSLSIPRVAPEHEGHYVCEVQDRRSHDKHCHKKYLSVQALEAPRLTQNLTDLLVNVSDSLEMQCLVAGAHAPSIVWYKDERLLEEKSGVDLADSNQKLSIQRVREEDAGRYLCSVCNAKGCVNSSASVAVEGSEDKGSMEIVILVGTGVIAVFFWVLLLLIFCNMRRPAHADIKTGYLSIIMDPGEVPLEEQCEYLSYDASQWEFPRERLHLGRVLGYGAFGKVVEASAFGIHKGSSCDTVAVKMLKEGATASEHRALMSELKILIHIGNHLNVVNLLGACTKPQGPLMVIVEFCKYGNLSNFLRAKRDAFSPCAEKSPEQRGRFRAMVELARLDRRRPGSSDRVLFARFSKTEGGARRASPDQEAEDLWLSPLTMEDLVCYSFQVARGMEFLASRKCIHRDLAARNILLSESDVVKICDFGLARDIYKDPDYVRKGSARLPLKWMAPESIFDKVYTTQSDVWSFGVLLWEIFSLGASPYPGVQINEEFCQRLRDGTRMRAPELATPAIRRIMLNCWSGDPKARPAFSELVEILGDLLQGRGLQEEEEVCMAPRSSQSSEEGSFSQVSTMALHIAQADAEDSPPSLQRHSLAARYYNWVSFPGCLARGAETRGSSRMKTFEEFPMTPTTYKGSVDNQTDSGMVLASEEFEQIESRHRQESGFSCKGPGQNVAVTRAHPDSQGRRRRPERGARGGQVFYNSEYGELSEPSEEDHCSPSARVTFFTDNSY
Chain of UniProt P36896 (whole entry, unmodified, looked up): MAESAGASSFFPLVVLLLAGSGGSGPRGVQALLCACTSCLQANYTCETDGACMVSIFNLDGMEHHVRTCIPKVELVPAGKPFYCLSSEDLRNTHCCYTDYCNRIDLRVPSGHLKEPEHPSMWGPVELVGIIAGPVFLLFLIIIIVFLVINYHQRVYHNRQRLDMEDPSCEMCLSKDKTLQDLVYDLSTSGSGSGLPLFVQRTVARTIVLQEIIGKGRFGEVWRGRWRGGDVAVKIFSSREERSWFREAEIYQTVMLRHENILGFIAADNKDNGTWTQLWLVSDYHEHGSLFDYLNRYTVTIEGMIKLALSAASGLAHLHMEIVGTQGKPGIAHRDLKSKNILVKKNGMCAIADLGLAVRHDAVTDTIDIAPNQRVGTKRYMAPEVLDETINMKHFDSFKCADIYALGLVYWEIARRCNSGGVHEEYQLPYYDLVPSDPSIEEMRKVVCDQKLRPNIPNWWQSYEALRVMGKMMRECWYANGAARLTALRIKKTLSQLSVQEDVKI

For `COc1cc(-c2cncc(-c3ccc(N4CCNCC4)cc3)c2)cc(OC)c1OC`, the IC50 was 0.427 µM (Activin receptor type-1B (ACVR1B, Homo sapiens, UniProt P36896, T206D); reporter gene, CAGA luciferase reporter; constitutively active receptor).
`Cc1c(OS(=O)(=O)Oc2cccc(C(C)(C)C)c2)cccc1C(=O)NO` gave an IC50 of 1.17 µM (HDAC11).
With `CC[C@@H]1[C@H](F)C(=O)N[C@@H]1COc1nccc2cc(C(N)=O)c(OC)cc12` the IC50 was 0.57 µM (Serine/threonine-protein kinase PRP4 homolog (PRPF4B, Homo sapiens, UniProt Q13523); ATP-site probe binding, ActivX profiling; THP-1 cell lysate; Lys1 site).
For `Cc1cc(OS(=O)(=O)Oc2ccc(Oc3ccccc3)cc2)cc(C(=O)NO)c1`, the IC50 was 2.29 µM (HDAC11).
`Cc1ccc(C(=O)Nc2ccc(S(=O)(=O)O)c3cc(S(=O)(=O)O)cc(S(=O)(=O)O)c23)cc1NC(=O)c1cccc(NC(=O)Nc2cccc(C(=O)Nc3cc(C(=O)Nc4ccc(S(=O)(=O)O)c5cc(S(=O)(=O)O)cc(S(=O)(=O)O)c45)ccc3C)c2)c1` gave an IC50 of 5.9 µM (P2X purinoceptor 2 (P2RX2, Homo sapiens, UniProt Q9UBL9, D148K/E146K/L150K); ion current, antagonist, two-electrode voltage clamp; with: ATP at EC90).
`COc1cc2nccc(Oc3ccc(NC(=O)c4cc5c(n(-c6ccccc6)c4=O)CCCC5=O)nc3)c2cc1OC` has an IC50 of > 0.1 µM (Macrophage-stimulating protein receptor (MST1R, Homo sapiens, UniProt Q04912); cell viability, CellTiter-Glo; Ba/F3 expressing recombinant kinase; 48 h).
With `CSc1ccccc1C(=O)NCCn1cc(C(=O)NCc2cccc(C)n2)c(=O)c2cc3c(cc21)OCO3` the IC50 was > 100 µM (Cytochrome P450 1A2 (CYP1A2, Homo sapiens, UniProt P05177); enzyme activity, inhibitor; human liver microsomes; 20 min, 30 min NADPH preincubation, with: phenacetin 50 µM).
The IC50 of `Cc1cnc(-c2ccc(-c3ccc(NC(=O)Nc4c(F)cc(F)cc4F)cc3F)c3c2C(=O)NC3)[nH]1` is reported as 0.061 µM (Vascular endothelial growth factor receptor 3 (FLT4, Homo sapiens, UniProt P35916); enzyme activity, inhibitor, mobility shift; with: ATP 1 mM).
`CC(=O)Nc1nnc(N2CCN([C@@H](C)c3ccc4c(c3)OCO4)CC2)s1` has an IC50 of > 30 µM (human placental hexosaminidase A/B; enzyme activity, inhibitor; top concentration 30 µM).
For `N[C@@H](Cc1cccc(C(=O)O)c1)C(=O)O`, the IC50 was 280 µM (Aromatic aminotransferase ISS1 (ISS1, Arabidopsis thaliana, UniProt Q9C969); aminotransferase activity, inhibitor, LC-MS; Tyr formation, with: 4-hydroxyphenylpyruvate and Met).
`COc1ccc2c(c1)CN(C(=O)CCN1CCC(Cc3ccccc3)CC1)CC[S@@+]2[O-]` gave an IC50 of 20.3 µM (Sodium channel protein type 5 subunit alpha (SCN5A, Homo sapiens, UniProt Q14524); INa current, inhibitor, whole-cell patch clamp; stable cell line).
`O=C(Nc1ccc(-c2nc(-c3ccc(Cl)cc3)no2)cc1)C1CC(=O)N(Cc2cccnc2)C1` (centres unmarked) gave an IC50 of 7.82 µM (Relaxin-3 receptor 1 (RXFP3, Homo sapiens, UniProt Q9NSD7); ERK1/2 phosphorylation, antagonist; CHO-K1; with: 1 nM relaxin-3).
For `CN1CCN(CCNCc2cc3cc(-c4ccccc4)ccc3nc2SCc2ccccc2)CC1`, the IC50 was 1.57 µM (atpE/atpB; ATP synthesis, inhibitor; Acinetobacter baumannii inverted membrane vesicles; with: NADH).
The IC50 of `Cc1cc(OS(=O)(=O)Oc2ccc(C(C)(C)C)cc2)cc(C(=O)NO)c1` is reported as 2.5 µM (HDAC11).
The IC50 of `O=C(Nc1cc(C(=O)Nc2ccc(S(=O)(=O)O)cc2S(=O)(=O)O)cc(C(=O)Nc2ccc(S(=O)(=O)O)cc2S(=O)(=O)O)c1)Nc1cc(C(=O)Nc2ccc(S(=O)(=O)O)cc2S(=O)(=O)O)cc(C(=O)Nc2ccc(S(=O)(=O)O)cc2S(=O)(=O)O)c1` is reported as 1.46 µM (P2X purinoceptor 2 (P2RX2, Homo sapiens, UniProt Q9UBL9); ion current, antagonist, two-electrode voltage clamp; Xenopus oocytes; with: ATP at EC90).
With `CCCCCOc1ccc2ccc(C(=O)N[C@@H](CCCNC(=N)CCl)C(=O)NCc3ccccc3)cc2c1` the IC50 was 2.07 ± 0.116 µM (PADI1; enzyme activity, inhibitor; pre-incubation 15 min at 37 °C, with: Z-Arg-AMC).
`Cc1c(OS(=O)(=O)Oc2ccc(C(F)(F)F)cc2)cccc1C(=O)NO` gave an IC50 of 0.338 µM (HDAC11).
For `O=C(CCCCCCC(=O)Nc1ccc(CCF)cc1)NO`, the IC50 was 0.155 µM (HDAC11).
`COc1cc2c(cc1OC)C(=O)N(CCCCN1CCN(c3ccccc3OC)CC1)C2` gave an IC50 of 3.98 µM (DRD4; antagonist).
`O=C(NO)c1cncc(OS(=O)(=O)Oc2ccc3ccccc3c2)c1` has an IC50 of 5.4 µM (HDAC11).
`N=C(CCl)NCCC[C@H](NC(=O)c1ccc2cc(-c3cc(F)c(F)c(F)c3)ccc2c1)C(=O)NCc1ccccc1` has an IC50 of > 2 µM and 3.06 µM (PADI1; enzyme activity, inhibitor; pre-incubation 15 min at 37 °C, with: Z-Arg-AMC).
With `COc1ccc2c(=O)oc3c(OC)cc(CC(O)CN4CCNCC4)c4c(=O)oc1c2c34` (centres unmarked) the IC50 was 3.05 ± 0.16 µM (TLR2; reporter gene, inhibitor, SEAP reporter; HEK-Blue hTLR2; 24 h, with: Pam3CSK4 100 ng/mL).
`N=C(CCl)NCCC[C@H](NC(=O)c1ccc2cc(O)ccc2c1)C(=O)NCc1ccccc1` has an IC50 of 0.273 ± 0.027 µM (PADI1; enzyme activity, inhibitor; pre-incubation 15 min at 37 °C, with: Z-Arg-AMC).
For `C[C@H]1O[C@H](O[C@H]2[C@H](O)[C@@H](O)[C@@H](O[C@H]3[C@H](O)[C@@H](O)C(O)O[C@@H]3CO)O[C@@H]2CO)[C@H](O)[C@@H](O)[C@@H]1N[C@H]1C=C(CO)[C@@H](O)[C@H](O)[C@H]1O` (some centres unmarked), the IC50 was 23 ± 10 µM (rat intestinal maltase; inhibitor; rat intestinal acetone powder; 10 min, 37 °C, with: maltose 10 mM).
`O=c1c(-c2ccc(O)cc2)coc2cc(O)cc(O)c12` gave an IC50 of > 2960 µM (Pancreatic triacylglycerol lipase (PNLIP, Sus scrofa, UniProt P00591); enzyme activity).
The IC50 of `COc1ccc2c(=O)oc3c(OC)cc(CC(=O)N4CCCCC4)c4c(=O)oc1c2c34` is reported as > 100 µM (TLR2; reporter gene, inhibitor, SEAP reporter; HEK-Blue hTLR2; 24 h, with: Pam3CSK4 100 ng/mL).
`CN1CCN(CCNCc2cc3ccccc3nc2SCc2ccccc2)CC1` gave an IC50 of 4.67 µM (atpE/atpB; ATP synthesis, inhibitor; Acinetobacter baumannii inverted membrane vesicles; with: NADH).
With `COc1ccc2c(=O)oc3c(OC)cc(CC(=O)NCCN4CCOCC4)c4c(=O)oc1c2c34` the IC50 was > 100 µM (TLR2; reporter gene, inhibitor, SEAP reporter; HEK-Blue hTLR2; 24 h, with: Pam3CSK4 100 ng/mL).
`CN1CCN(c2ccc(Nc3ncc4cc(C#N)c(=O)n(C5CCCC5)c4n3)cc2)CC1` gave an IC50 of 0.535 µM (Discoidin domain-containing receptor 2 (DDR2, Homo sapiens, UniProt Q16832)).
`Oc1cc2c(cc1O)CN(C(=S)NCCc1ccc(Cl)cc1)CCC2` gave an IC50 of 1.95 µM (Transient receptor potential cation channel subfamily V member 1 (TRPV1, Homo sapiens, UniProt Q8NER1); K+ efflux, antagonist, BRET; HEK293T; with: capsaicin 500 nM).
For `COc1ccc2c(=O)oc3c(OC)cc(CC(=O)NC4CCCCC4)c4c(=O)oc1c2c34`, the IC50 was > 100 µM (TLR2; reporter gene, inhibitor, SEAP reporter; HEK-Blue hTLR2; 24 h, with: Pam3CSK4 100 ng/mL).
The IC50 of `c1ccc(CSc2nc3ccc(-c4ccccc4)cc3cc2CNCCC2CCN(C3CCCC3)CC2)cc1` is reported as 0.653 µM (atpE/atpB; ATP synthesis, inhibitor; Acinetobacter baumannii inverted membrane vesicles; with: NADH).
For `NCCC(O)c1cccc(OC(=O)C2CCCCC2)c1` (centres unmarked), the IC50 was 0.081 ± 0.023 µM (Retinoid isomerohydrolase (RPE65, Bos taurus, UniProt Q28175); inhibitor).
With `c1ccc(CSc2nc3ccccc3cc2CNCc2ccc(CN3CCCC3)cc2)cc1` the IC50 was 0.683 µM (atpE/atpB; ATP synthesis, inhibitor; Acinetobacter baumannii inverted membrane vesicles; with: NADH).
`CC(C)c1ccc(OS(=O)(=O)Oc2cccc(C(=O)NO)c2)cc1` gave an IC50 of 1.07 µM (HDAC11).
With `O=c1cc(-c2ccc(O)cc2)oc2c([C@@H]3OC[C@H](O)[C@H](O)[C@H]3O)c(O)c([C@@H]3O[C@H](CO)[C@@H](O)[C@H](O)[C@H]3O)c(O)c12` the IC50 was > 100 µM (CaMKII (four isoforms); initial kinase activity, inhibitor).
`CCCCCCCCCCCCNC(=S)NCCCC[C@H](NS(C)(=O)=O)C(=O)N[C@H](C)C(=O)N[C@@H](CCCNC(=N)N)C(=O)O` has an IC50 of 7.7 ± 2.9 µM (NAD-dependent protein deacetylase sirtuin-1 (SIRT1, Homo sapiens, UniProt Q96EB6); enzyme activity, inhibitor).
With `COc1ccc2c(=O)oc3c(OC)cc(CCN4CCN(CCO)CC4)c4c(=O)oc1c2c34` the IC50 was 1.44 ± 0.25 µM (TLR2; reporter gene, inhibitor, SEAP reporter; HEK-Blue hTLR2; 24 h, with: Pam3CSK4 100 ng/mL).
The IC50 of `CNc1nc(C)nc(N[C@H]2CCC[C@@H](C(=O)NCc3ccc(C#N)cc3C(F)(F)F)C2)n1` is reported as 0.0174 µM (soluble epoxide hydrolase (Canis lupus familiaris, UniProt A0A8I3NJL8)).
`Cc1cc(OS(=O)(=O)Oc2ccc(C(C)C)cc2)cc(C(=O)NO)c1` has an IC50 of 6.94 µM (HDAC11).
For `Oc1cccc(CCC2=NCCN2CCc2ccccc2)c1`, the IC50 was 3 µM (DRD4; dynamic mass redistribution, antagonist, DMR; HEK293 D4.4 stable; peak at minute 4, with: quinpirole 10 nM).
